Results pooled from the literature.
Parts stem from different laboratories: compare values within a part only. Positions count from the first letter of the parent shown.

Set 1
Target: Prothrombin, mature alpha-thrombin (F2, Homo sapiens, UniProt P00734)
Method: aptamer microarray, sandwich
Form: DNA with 2'F-ANA
Medium: in vitro
Tested at: 200 nM
Notes: whole 15-mer aptamer, many near background
Added: Cy3 exosite-II aptamer, 400 nM
Direction: higher = stronger binding
Quantity: mean fluorescence intensity
Strand: GGTTGGTGTGGTTGG
2'F-ANA at 1 3 7 8 9 12 14 15: 135 a.u.
2'F-ANA at 3 4 6 9 12 13 14: 261 a.u.
2'F-ANA at 1 3 5 6 8 10 11 12 14 15: 75.1 a.u.
2'F-ANA at 1 2 3 5 6 9 15: 61 a.u.
2'F-ANA at 1 5 6 9 12 13 15: 84.4 a.u.
2'F-ANA at 2 3 5 6 10 11 12 14: 47.8 a.u.
2'F-ANA at 4 6 7 9 10 11 14: 57 a.u.
2'F-ANA at 2 8 13: 498 a.u.
2'F-ANA at 1 2 3 5 6 8 9 10 13 15: 49.1 a.u.
2'F-ANA at 1 2 3 8 9 10 11 12: 97.9 a.u.

Set 2
Target: CCND3, cyclin fold, Cln2 fusion (human)
Method: yeast growth competition, sequencing
Medium: yeast
Notes: weak parent motif
Reference: not given
Direction: higher = stronger binding
Quantity: normalised enrichment score
Starting sequence: SAMHD1 docking peptide (human); ASKSRVQLFKDDP
ASKSRVQLFNDDP [K10N]: -0.0024
ASKSRVQLFKDFP [D12F]: -0.253
ASKSRVQLFKMDP [D11M]: 0.232
ASKSRVQHFKDDP [L8H]: -0.0863
ASKSGVQLFKDDP [R5G]: 0.0131
ASKSRVQRFKDDP [L8R]: 0.232
AIKSRVQLFKDDP [S2I]: 0.47

Set 3
Target: Interferon regulatory factor 3, full length, phosphomimetic (IRF3, Homo sapiens, UniProt Q14653, residues 1-427, S386D/S396D/S398D/S402D/T404D/S405D)
Chain of UniProt Q14653 (whole entry, unmodified, looked up): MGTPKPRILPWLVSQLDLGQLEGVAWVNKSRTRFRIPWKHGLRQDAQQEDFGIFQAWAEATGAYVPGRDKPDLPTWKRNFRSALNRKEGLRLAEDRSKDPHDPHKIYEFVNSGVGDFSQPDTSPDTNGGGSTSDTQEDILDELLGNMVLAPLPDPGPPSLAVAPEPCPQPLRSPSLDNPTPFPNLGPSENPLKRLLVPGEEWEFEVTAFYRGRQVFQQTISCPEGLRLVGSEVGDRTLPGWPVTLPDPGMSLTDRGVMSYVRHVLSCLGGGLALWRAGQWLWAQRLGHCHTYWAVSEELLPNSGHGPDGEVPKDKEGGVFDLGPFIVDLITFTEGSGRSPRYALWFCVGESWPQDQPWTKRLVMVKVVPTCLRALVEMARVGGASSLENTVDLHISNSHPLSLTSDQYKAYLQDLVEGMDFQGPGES
Method: protein-binding microarray
Form: double-stranded DNA, one strand shown
Medium: in vitro
Tested at: 2540 nM top
Notes: 60-bp whole probe
Added: salmon DNA 0.4 mg/ml
Reference: random background probes
Direction: higher = stronger binding
Quantity: fitted relative affinity
Constant ends, left off below: GCCTAGCAC … GTCTTGATTCGCTTGACGCTGCTG
ACATTCCATGAGCCCACTGGGTGCTAG: 0.521 z-score
TTAGTTATCGGGTATCGGTTAGTGCTA: 1.17 z-score
TTAGGTCTCTTTTTCCTTTAGTGCTAG: 2.51 z-score
TCAGAATTGAAAATTAGTACTGTGCTA: 0.245 z-score
TTAGGTATCGGACTGAGTTAGTGCTAG: 1.18 z-score
TTAGATAACGGGTATCGATTAGTGCTA: -0.013 z-score
TTACGTTCCGGTTTCGGTTAGTGCTAG: 6.97 z-score
TCATTTTTTCTAATTGAACTGTGCTAG: 1.46 z-score
CGTAAGCAAAAATGATTGGTGTGCTAG: -0.116 z-score

Other studies, line by line
PhoQ, residues 284 288 289 292 302 303 ALAMYF
fold induction (PhoP, residues 12 14 15 18 19 LQHIR (Escherichia coli, UniProt P23836); Sort-seq, refers to: YFP reporter; E. coli; PhoQ-PhoP variant library, added: 10 µM Mg2+; reference: high Mg2+ state, higher = stronger signaling): 30.8

A few entries again (set 2):
ASKSRVQLFKDFP [D12F]: -0.253
ASKSGVQLFKDDP [R5G]: 0.0131
AIKSRVQLFKDDP [S2I]: 0.47
